# Assay results gathered from unrelated publications.
# Every numbered part comes from another study and shows a few of its results, in no order. Substitutions count along the parent as printed.

# Sample 1
# Target: Prothrombin, mature alpha-thrombin (F2, Homo sapiens, UniProt P00734)
# Technique: aptamer microarray, sandwich
# Molecule type: DNA with 2'F-ANA
# Sample: in vitro
# Concentration: 200 nM
# Notes: whole 15-mer aptamer, many near background
# With: Cy3 exosite-II aptamer, 400 nM
# Reading: higher = stronger binding
# Oligonucleotide: GGTTGGTGTGGTTGG
Modification,mean fluorescence intensity
2'F-ANA at 3 8 9 10 11 13 15,443 a.u.
2'F-ANA at 3 4 5 9 11 13 15,65.9 a.u.
2'F-ANA at 1 7 9 10 13 14 15,60.5 a.u.
2'F-ANA at 1 3 5 7 8 9 10 12 13,54.1 a.u.
2'F-ANA at 4 5 6 7 8 9 10 11 12 13 14,60.4 a.u.
2'F-ANA at 1 2 5 6 9 10 11 12 14,71 a.u.
2'F-ANA at 4 5 6 10 13 14 15,45.2 a.u.
2'F-ANA at 1 2 3 4 5 10 11 15,46.5 a.u.
2'F-ANA at 2 6 7 8 14 15,156 a.u.
2'F-ANA at 4 5 13 14 15,45.4 a.u.
2'F-ANA at 9 10 11 12 14 15,97.5 a.u.
2'F-ANA at 1 3 4 14,74.5 a.u.
2'F-ANA at 2 3 6 7 9 11 14 15,378 a.u.
2'F-ANA at 1 2 3 5 8 11 12,115 a.u.
2'F-ANA at 3 4 5 7 9 12,215 a.u.
2'F-ANA at 1 4 5 9 10 13,43.5 a.u.
2'F-ANA at 2 3 4 7 8 11 12,852 a.u.

# Sample 2
# Target: ABI1, truncated, D143A, DHFR fusion (Arabidopsis thaliana)
# Technique: DHFR PCA, deep sequencing
# Sample: yeast
# Notes: methotrexate growth selection, single substitutions
# With: (+)-ABA 17 µM
# Reference: wild-type fitted maximum
# Reading: higher = stronger binding
# Parent: PYL1, truncated, DHFR fusion (Arabidopsis thaliana); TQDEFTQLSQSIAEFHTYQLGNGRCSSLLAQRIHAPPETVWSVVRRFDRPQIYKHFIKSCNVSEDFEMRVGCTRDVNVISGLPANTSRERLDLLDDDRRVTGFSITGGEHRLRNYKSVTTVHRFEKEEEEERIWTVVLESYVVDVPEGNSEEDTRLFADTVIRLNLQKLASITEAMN
Substitution,relative binding score [%]
L166C,3.83
A13G,74.9
S26M,64.4
E64L,71.6
F15N,48.4
T160F,91.6
T120V,-5.52
T39S,71.5
A30V,82.3
I105H,7.81
S27H,81.7
T135E,-3.78
K58T,58.6
T160R,44.5
A30N,56.3
N85P,3.57
L91V,-10.5
K54G,-3.22
L156I,91.2
N77M,85.5

# Sample 3
# Target: RNA binding protein fox-1 homolog 2, RRM domain, GST-SBP tag (RBFOX2, Homo sapiens, UniProt O43251-10, residues 100-194)
# Technique: RNA Bind-n-Seq
# Molecule type: RNA
# Sample: in vitro
# Concentration: 365 nM
# Notes: natural RNA segment, single round, ends assumed
# Reference: no-protein control
# Reading: higher = stronger binding
# Target sequence (chain): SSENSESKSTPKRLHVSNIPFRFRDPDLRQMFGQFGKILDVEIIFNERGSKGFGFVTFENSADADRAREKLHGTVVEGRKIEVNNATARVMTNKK
Oligonucleotide,RBNS enrichment (R)
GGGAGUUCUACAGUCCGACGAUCGCAGUUUAGUGCAUCUUUGCCUCUCGGUUGAAACCUGUAUAACCCUGUUACAAAGCUGUGUUGUUGCUUCUUGUGAAGGCCAUGAUAUUUUGUUUUUCCCCAAUUAAUUGUGGAAUUCUCGGGUGCCAA,0.536
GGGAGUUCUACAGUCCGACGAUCAAAAUAAAAUCUCUAGUCCAAACACACUGACAGUAUUAUGUUUGCCUGAAUGUGAAACAUUCCUCCUUUUUUCUUCCAUAAAUAAUUUGUUUGCUUCCCAAAGAUGUAUGUGGAAUUCUCGGGUGCCAA,1.45
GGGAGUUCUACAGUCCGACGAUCCAUGAACUAGUUCCAGAUCUGAAGCCCAGGUUAGGCAUGACAUUGCAGCCCCAACCCUACCUCAUCUGUGCUGAAAGACGCUGAAACUGCCUGGGAUGUUUUCGGGAACAUGGAAUUCUCGGGUGCCAA,0.503
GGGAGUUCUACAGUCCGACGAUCAACCACUUUGAGCAAGGCUGCCUUCUUGUAGAUGACUUGCUGUUCUUUAUGACAGGGAUCAGUGGCAUUUGUUUCCUAGCAGUAUUUAGCACCUUUUUGCCACCUUGGUGUGGAAUUCUCGGGUGCCAA,0.39
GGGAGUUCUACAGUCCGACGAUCGCAGGCAGAAUGUGCAUACAUGUUUUCAUGAGUGUCCUUUGGGUGCUGUUUCUUUUAAAUCCUCUGUGCACAGGGCUCUGGCCUUUAGUAAACUGUUUUUCUGUCUUACGUGGAAUUCUCGGGUGCCAA,0.271
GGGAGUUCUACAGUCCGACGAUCCAAGUUCUCUGGGCAGGAAUUACAGCACCUGUCCCCUGCAAUGGCCCUGCUGUGUGAUGCUCAUCGCUUCCCUUCGUGCUGGAGCAGUCCCCCAGGUGUCCAUCUCCUAUUGGAAUUCUCGGGUGCCAA,0.274
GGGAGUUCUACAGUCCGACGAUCAGAGCCAUUAUGGUGAGGUACACCUUUAAUCAUAGCACUCAGGAAGCAGGGGCAGGUGAGCCACCAUGGACUGCAUAGCAAGCCAGCCUUGAAUAUAGUGAGUCCAGUCUUGGAAUUCUCGGGUGCCAA,0.322
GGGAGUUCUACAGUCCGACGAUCUAAACUGCAUGCUGCCAAGUGCCAUUUGGGGUCAGCAUCCUCGUUUCAACACAGUGUGCUCUCUAGUUAUCAUGUGUAACGUGGGUUCUGUUUAGCGAAGAUAGACUAGAUGGAAUUCUCGGGUGCCAA,0.881

# Sample 4
# Target: CCNF, cyclin fold, Cln2 fusion (human)
# Technique: yeast growth competition, sequencing
# Sample: yeast
# Notes: strong parent motif
# Reference: not given
# Reading: higher = stronger binding
# Parent: ASZ1 docking peptide (human); GFGFLLFICKLTF; partner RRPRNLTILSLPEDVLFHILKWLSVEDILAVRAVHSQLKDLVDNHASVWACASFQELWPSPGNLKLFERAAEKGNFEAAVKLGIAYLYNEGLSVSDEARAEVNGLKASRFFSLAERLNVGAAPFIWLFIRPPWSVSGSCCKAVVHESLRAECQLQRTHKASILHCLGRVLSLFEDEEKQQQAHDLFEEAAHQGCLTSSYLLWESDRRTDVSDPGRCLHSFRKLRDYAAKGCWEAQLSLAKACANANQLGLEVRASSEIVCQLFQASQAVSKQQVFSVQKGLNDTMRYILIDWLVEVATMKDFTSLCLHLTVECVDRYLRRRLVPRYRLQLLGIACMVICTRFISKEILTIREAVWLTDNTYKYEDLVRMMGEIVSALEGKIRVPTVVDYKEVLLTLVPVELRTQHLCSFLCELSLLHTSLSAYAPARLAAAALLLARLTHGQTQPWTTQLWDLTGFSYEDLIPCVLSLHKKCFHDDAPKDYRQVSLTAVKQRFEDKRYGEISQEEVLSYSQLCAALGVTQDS
Substitution,normalised enrichment score
GFGFLLFICKATF [L11A],2.74
GFGFLAFICKLTF [L6A],2.46
GFGFLLFICALTF [K10A],1.77
GFGALLFICKLTF [F4A],1.81
GFAFLLFICKLTF [G3A],2.53
AFGFLLFICKLTF [G1A],2.48
GFGFLLFIAKLTF [C9A],2.53

# A few entries again (sample 2):
Substitution,relative binding score [%]
A13G,74.9
S26M,64.4
E64L,71.6
F15N,48.4
T160F,91.6
T120V,-5.52
T39S,71.5
A30V,82.3
